{"data": "Measurements of several laboratories", "cell line": "NCI-H460", "note": "Each line is one published result; not all experiments were run side by side."}
{"Compound": "COc1c(CCC[P+](c2ccccc2)(c2ccccc2)c2ccccc2)cc2c(c1OC)OCO2.[I-]", "test": "SRB", "endpoint": "GI50", "value": "-5.84 log M"}
{"Compound": "COc1c(C)c2c(c(O)c1C/C=C(\\C)CCC(=O)O)C(=O)OC2", "test": "cell proliferation", "test system": "lung cancer", "endpoint": "IC50", "value": "288 nM"}
{"Compound": "CC(C)N1CCC(NC2CCN(c3cccc(-c4cc5cc(F)ccc5[nH]4)c3)CC2)CC1", "endpoint": "CC50", "value": "5050 nM"}
{"Compound": "CCN(CC)c1ccc(C=NNC(=O)CSc2nc3ccccc3c(=O)n2Cc2ccc(S(N)(=O)=O)cc2)c(O)c1", "test": "NCI five-dose screen", "endpoint": "CC50", "value": "> 100000 nM"}
{"Compound": "N.N.[Cl][Pt][Cl]", "test": "high-content imaging", "setting": "40 µM", "endpoint": "cell death", "value": "69%"}
{"Compound": "COc1cc(CCC[P+](c2ccccc2)(c2ccccc2)c2ccccc2)c(OC)c2c1OCO2.[I-]", "test": "SRB", "endpoint": "GI50", "value": "-5.74 log M"}
{"Compound": "Nc1ncc(-c2nc(N3CCOCC3)nc(N3CCOCC3)n2)c(C(F)F)n1", "setting": "72 h", "endpoint": "GI50", "value": "67 nM"}
{"Compound": "Cn1cncc1C1=CN(c2ncnc3[nH]cnc23)CCS1", "setting": "lung cancer", "endpoint": "CC50", "value": "> 200000 nM"}
{"note": "A few entries again:"}
{"Compound": "N.N.[Cl][Pt][Cl]", "test": "high-content imaging", "setting": "40 µM", "endpoint": "cell death", "value": "69%"}
